{"data": "Assay results gathered from unrelated publications", "P2RX2 D148K/E146K/L150K": "P2X purinoceptor 2 (P2RX2, Homo sapiens, UniProt Q9UBL9, D148K/E146K/L150K)", "TLR2": "Toll-like receptor 2 (TLR2, Homo sapiens, UniProt O60603)", "HDAC11": "Histone deacetylase 11 (HDAC11, Homo sapiens, UniProt Q96DB2)", "PADI1": "Protein-arginine deiminase type-1 (PADI1, Homo sapiens, UniProt Q9ULC6)", "TRPV1": "Transient receptor potential cation channel subfamily V member 1 (TRPV1, Homo sapiens, UniProt Q8NER1)", "atpE/atpB": "atpE/atpB (Acinetobacter baumannii, UniProt A3M139+B2I0Z6)", "note": "Protocols differ between the studies behind these lines. ± marks the error that the study gave.", "sequence of UniProt O60603 (whole entry, unmodified, looked up)": "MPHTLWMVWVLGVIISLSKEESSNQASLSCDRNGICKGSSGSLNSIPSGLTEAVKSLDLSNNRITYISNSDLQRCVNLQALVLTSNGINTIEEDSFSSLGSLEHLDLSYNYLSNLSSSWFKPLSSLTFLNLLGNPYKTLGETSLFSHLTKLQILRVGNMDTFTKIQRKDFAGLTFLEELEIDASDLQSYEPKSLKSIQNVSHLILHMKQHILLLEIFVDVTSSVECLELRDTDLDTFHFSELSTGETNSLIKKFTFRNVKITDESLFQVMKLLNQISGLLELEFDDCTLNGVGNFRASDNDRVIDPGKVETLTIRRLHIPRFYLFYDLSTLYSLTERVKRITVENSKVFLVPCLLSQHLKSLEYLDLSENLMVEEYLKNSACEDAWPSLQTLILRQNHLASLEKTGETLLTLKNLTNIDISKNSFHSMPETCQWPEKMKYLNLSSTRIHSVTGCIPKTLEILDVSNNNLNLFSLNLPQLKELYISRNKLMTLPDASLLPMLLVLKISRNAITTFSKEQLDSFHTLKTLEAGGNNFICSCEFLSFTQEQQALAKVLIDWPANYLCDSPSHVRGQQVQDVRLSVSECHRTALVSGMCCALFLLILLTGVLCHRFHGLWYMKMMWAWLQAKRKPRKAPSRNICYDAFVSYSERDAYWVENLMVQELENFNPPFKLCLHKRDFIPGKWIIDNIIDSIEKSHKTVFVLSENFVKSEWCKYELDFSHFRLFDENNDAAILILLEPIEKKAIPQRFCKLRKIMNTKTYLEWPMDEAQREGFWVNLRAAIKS", "sequence of UniProt A3M139 (whole entry, looked up)": "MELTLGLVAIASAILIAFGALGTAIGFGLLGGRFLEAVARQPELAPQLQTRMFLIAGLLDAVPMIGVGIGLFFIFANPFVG", "sequence of UniProt Q96DB2 (whole entry, looked up)": "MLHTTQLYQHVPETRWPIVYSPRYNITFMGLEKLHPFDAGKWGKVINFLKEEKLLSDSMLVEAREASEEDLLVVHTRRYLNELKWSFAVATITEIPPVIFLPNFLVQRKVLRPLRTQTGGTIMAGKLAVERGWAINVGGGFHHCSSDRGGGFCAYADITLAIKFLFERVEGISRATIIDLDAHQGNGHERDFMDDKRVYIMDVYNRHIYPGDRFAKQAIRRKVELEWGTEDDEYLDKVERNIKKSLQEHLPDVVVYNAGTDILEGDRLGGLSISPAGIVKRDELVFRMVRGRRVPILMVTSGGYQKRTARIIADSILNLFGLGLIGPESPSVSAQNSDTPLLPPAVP", "sequence of UniProt Q9UBL9 (whole entry, unmodified, looked up)": "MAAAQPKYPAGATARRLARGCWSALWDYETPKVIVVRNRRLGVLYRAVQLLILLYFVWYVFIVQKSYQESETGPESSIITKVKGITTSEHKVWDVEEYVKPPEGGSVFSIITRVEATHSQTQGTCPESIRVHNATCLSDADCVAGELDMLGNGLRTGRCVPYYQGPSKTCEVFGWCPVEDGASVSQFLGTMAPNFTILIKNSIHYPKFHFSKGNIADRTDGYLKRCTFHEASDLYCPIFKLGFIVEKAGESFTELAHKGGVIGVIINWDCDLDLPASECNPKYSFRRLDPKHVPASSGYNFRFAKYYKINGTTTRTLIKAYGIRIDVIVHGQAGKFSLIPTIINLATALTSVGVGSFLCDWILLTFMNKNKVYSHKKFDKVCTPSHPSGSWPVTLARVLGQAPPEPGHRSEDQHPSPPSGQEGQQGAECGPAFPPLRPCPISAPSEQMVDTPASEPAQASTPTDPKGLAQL", "sequence of UniProt Q8NER1 (whole entry, looked up)": "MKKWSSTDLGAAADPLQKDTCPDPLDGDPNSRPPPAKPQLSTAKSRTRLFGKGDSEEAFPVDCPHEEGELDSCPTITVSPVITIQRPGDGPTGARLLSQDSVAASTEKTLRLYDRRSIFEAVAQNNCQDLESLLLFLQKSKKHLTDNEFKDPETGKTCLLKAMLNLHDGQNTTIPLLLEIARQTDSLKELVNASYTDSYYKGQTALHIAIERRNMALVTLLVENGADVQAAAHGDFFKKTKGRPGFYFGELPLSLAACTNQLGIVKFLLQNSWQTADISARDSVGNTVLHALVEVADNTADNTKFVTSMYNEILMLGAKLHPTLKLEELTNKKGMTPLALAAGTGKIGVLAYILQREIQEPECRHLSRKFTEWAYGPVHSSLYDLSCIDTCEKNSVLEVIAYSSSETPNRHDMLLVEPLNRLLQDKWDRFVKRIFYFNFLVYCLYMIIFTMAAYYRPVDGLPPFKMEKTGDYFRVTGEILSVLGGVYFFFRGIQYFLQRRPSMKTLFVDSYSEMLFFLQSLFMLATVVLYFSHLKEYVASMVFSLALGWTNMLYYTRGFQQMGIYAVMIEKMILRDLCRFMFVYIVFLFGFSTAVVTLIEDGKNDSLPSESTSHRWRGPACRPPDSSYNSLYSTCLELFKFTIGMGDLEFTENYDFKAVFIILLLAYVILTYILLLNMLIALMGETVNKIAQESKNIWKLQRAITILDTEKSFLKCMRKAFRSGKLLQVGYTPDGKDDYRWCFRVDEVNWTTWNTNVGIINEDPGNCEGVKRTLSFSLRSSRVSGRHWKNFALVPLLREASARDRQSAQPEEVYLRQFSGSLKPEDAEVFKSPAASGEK", "sequence of UniProt Q9ULC6 (whole entry, unmodified, looked up)": "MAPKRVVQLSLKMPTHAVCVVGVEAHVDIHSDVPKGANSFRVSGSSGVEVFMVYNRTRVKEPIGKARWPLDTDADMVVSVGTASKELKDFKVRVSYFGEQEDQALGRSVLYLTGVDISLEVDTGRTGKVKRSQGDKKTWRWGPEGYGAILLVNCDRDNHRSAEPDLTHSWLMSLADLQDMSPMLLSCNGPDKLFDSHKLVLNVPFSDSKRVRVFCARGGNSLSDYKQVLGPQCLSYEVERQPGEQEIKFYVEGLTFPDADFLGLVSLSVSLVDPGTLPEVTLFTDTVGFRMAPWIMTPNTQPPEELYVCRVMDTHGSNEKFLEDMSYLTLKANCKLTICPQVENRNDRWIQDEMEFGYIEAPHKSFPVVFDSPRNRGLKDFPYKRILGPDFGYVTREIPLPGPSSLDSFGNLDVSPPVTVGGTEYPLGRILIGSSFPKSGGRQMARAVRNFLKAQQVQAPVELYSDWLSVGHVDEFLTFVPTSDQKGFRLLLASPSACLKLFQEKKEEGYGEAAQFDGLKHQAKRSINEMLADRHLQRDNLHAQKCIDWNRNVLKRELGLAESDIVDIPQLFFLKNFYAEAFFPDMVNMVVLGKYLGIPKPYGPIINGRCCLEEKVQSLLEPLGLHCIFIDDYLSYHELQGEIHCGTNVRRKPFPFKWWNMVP", "sequence of UniProt P05177 (whole entry, looked up)": "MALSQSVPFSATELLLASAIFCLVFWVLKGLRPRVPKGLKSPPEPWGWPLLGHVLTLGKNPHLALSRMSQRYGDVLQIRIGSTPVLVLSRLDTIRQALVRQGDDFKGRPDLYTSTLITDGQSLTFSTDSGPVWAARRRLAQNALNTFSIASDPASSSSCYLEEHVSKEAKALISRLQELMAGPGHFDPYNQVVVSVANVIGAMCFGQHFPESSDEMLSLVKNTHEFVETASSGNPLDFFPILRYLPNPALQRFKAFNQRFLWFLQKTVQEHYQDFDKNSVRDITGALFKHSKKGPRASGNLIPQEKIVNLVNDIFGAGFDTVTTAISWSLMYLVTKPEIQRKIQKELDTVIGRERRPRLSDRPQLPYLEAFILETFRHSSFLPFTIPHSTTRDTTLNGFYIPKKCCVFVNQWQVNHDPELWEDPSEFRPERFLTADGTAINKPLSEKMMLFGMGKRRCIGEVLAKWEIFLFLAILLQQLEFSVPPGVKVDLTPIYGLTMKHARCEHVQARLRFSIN", "sequence of UniProt P41595 (whole entry, looked up)": "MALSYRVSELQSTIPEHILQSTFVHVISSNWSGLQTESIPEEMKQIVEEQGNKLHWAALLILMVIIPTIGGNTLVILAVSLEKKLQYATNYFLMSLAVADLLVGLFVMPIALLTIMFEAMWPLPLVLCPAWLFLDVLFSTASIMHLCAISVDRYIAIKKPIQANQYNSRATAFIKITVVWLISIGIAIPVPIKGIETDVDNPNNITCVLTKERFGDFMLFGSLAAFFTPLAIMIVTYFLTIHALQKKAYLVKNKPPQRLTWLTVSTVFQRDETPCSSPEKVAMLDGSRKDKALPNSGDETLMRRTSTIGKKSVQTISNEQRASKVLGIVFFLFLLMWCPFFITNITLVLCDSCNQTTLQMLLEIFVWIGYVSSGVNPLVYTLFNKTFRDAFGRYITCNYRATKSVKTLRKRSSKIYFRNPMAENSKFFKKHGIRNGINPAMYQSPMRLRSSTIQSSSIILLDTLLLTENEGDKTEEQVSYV", "sequence of UniProt Q9NSD7 (whole entry, looked up)": "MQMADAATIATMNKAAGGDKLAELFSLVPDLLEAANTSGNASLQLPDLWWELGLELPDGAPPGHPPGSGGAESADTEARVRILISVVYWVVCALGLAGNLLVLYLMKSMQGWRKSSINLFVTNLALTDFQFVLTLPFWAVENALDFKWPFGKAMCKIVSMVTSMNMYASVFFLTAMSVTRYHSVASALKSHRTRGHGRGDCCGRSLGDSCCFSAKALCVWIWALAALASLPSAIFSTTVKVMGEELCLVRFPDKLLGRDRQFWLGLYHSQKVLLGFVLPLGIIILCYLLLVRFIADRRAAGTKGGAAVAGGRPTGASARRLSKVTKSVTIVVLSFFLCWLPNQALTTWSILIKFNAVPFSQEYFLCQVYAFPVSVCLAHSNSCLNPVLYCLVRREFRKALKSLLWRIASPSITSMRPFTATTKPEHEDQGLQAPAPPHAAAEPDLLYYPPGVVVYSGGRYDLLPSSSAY"}
{"Compound": "Cc1cnc(-c2ccc(-c3ccc(NC(=O)Nc4c(F)cc(F)cc4F)cc3F)c3c2C(=O)NC3)[nH]1", "tested on": "FLT4 (Homo sapiens, UniProt P35916)", "assay": "enzyme activity, inhibitor, mobility shift", "setting": "together with: ATP 1 mM", "measurement": "IC50", "result": "0.061 µM"}
{"Compound": "COc1cc(C=O)ccc1O", "tested on": "rat intestinal maltase", "assay": "inhibitor", "system": "rat intestinal acetone powder", "setting": "10 min, 37 °C, together with: maltose 10 mM", "measurement": "IC50", "result": "5490 ± 340 µM"}
{"Compound": "O=C(Nc1cc(C(=O)Nc2ccc(S(=O)(=O)O)cc2S(=O)(=O)O)cc(C(=O)Nc2ccc(S(=O)(=O)O)cc2S(=O)(=O)O)c1)Nc1cc(C(=O)Nc2ccc(S(=O)(=O)O)cc2S(=O)(=O)O)cc(C(=O)Nc2ccc(S(=O)(=O)O)cc2S(=O)(=O)O)c1", "tested on": "P2RX2 D148K/E146K/L150K", "assay": "ion current, antagonist, two-electrode voltage clamp", "setting": "together with: ATP at EC90", "measurement": "IC50", "result": "0.325 µM"}
{"Compound": "COc1ccc2c(=O)oc3c(OC)cc(CC(O)CN4CCN(CCO)CC4)c4c(=O)oc1c2c34 (stereo not shown)", "tested on": "TLR2", "assay": "reporter gene, inhibitor, SEAP reporter", "system": "HEK-Blue hTLR2", "setting": "24 h, together with: Pam3CSK4 100 ng/mL", "measurement": "IC50", "result": "2.3 ± 0.07 µM"}
{"Compound": "CC[C@@H]1[C@H](F)C(=O)N[C@@H]1COc1nccc2cc(C(N)=O)c(OC)cc12", "tested on": "PRPF4B (Homo sapiens, UniProt Q13523)", "assay": "ATP-site binding, ActivX kinase profiling", "system": "THP-1 cell lysate", "setting": "probe peptide", "measurement": "IC50", "result": "0.61 µM"}
{"Compound": "O=C(O)C1=CC(=C(c2ccc(O)c(C(=O)O)c2)c2ccc(O)c(C(=O)O)c2)C=CC1=O", "tested on": "TREX1 (Homo sapiens, UniProt Q9NSU2)", "assay": "exonuclease activity, inhibitor", "setting": "together with: 30-mer ssDNA substrate", "measurement": "IC50", "result": "1.81 µM"}
{"Compound": "Cc1ccc(C(=O)Nc2ccc(S(=O)(=O)O)c3cc(S(=O)(=O)O)cc(S(=O)(=O)O)c23)cc1NC(=O)c1cccc(NC(=O)Nc2cccc(C(=O)Nc3cc(C(=O)Nc4ccc(S(=O)(=O)O)c5cc(S(=O)(=O)O)cc(S(=O)(=O)O)c45)ccc3C)c2)c1", "tested on": "P2RX2 D148K/E146K/L150K", "assay": "ion current, antagonist, two-electrode voltage clamp", "setting": "together with: ATP at EC90", "measurement": "IC50", "result": "5.9 µM"}
{"Compound": "Cc1c(OS(=O)(=O)Oc2ccc(C(C)(C)C)cc2)cccc1C(=O)NO", "tested on": "HDAC11", "measurement": "IC50", "result": "1.05 µM"}
{"Compound": "O=c1cc(-c2ccc(O)cc2)oc2c([C@@H]3OC[C@H](O)[C@H](O)[C@H]3O)c(O)c([C@@H]3O[C@H](CO)[C@@H](O)[C@H](O)[C@H]3O)c(O)c12", "tested on": "CaMKII (four isoforms)", "assay": "initial kinase activity, inhibitor", "measurement": "IC50", "result": "> 100 µM"}
{"Compound": "COc1cc2c3c(c1OC)-c1cc4c(cc1CC3N(C)CC2c1ccccc1)OCO4 (stereo not shown)", "tested on": "HTR2B (Homo sapiens, UniProt P41595)", "assay": "antagonist, functional", "setting": "cell-based", "measurement": "IC50", "result": "1 µM"}
{"Compound": "Cc1cc(OS(=O)(=O)Oc2ccc(C(C)(C)C)cc2C)cc(C(=O)NO)c1", "tested on": "HDAC11", "measurement": "IC50", "result": "2.92 µM"}
{"Compound": "Cc1nc(-c2cnc(NC(C)C)n(C)c2=O)ccc1Oc1ccnc(-c2cnn(C)c2)c1", "tested on": "Cytochrome P450 1A2 (CYP1A2, Homo sapiens, UniProt P05177)", "assay": "time-dependent inhibition, inhibitor", "setting": "30 min preincubation without NADPH", "measurement": "IC50", "result": "> 100 µM"}
{"Compound": "CN1CCN(c2ccc(Nc3ncc4cc(C#N)c(=O)n(C5CCCC5)c4n3)cc2)CC1", "tested on": "MINK1 (Homo sapiens, UniProt Q8N4C8)", "measurement": "IC50", "result": "0.8 µM"}
{"Compound": "CCCCCOc1ccc2ccc(C(=O)N[C@@H](CCCNC(=N)CCl)C(=O)NCc3ccccc3)cc2c1", "tested on": "PADI1", "assay": "enzyme activity, inhibitor", "setting": "pre-incubation 15 min at 37 °C, together with: Z-Arg-AMC", "measurement": "IC50", "result": "2.07 ± 0.116 µM"}
{"Compound": "C[C@H]1[C@H](F)C[C@@H](C(=O)NCc2cc(-c3cnc(C(F)(F)F)nc3)ncc2C(F)(F)F)N1S(=O)(=O)c1ccc(F)cc1", "tested on": "TRPV1", "assay": "calcium response, antagonist", "system": "human cells", "setting": "together with: capsaicin 30 nM", "measurement": "IC50", "result": "> 20 µM"}
{"Compound": "O=C(NO)c1cncc(OS(=O)(=O)Oc2ccc3ccccc3c2)c1", "tested on": "HDAC11", "measurement": "IC50", "result": "5.4 µM"}
{"Compound": "Cn1cc(-c2ccc(-c3cncc(Cl)c3N3CCC4(CCNC4=O)CC3)cc2)cn1", "tested on": "COLO 205", "assay": "gene expression, microarray, item: CDC45 mRNA", "setting": "concentration not given, 6 h", "scale": "reference: untreated cells", "measurement": "log2 fold change", "result": -2.38}
{"Compound": "COc1ccc2c(=O)oc3c(OC)cc(CC(=O)Nc4ccccc4)c4c(=O)oc1c2c34", "tested on": "TLR2", "assay": "reporter gene, inhibitor, SEAP reporter", "system": "HEK-Blue hTLR2", "setting": "24 h, together with: Pam3CSK4 100 ng/mL", "measurement": "IC50", "result": "> 100 µM"}
{"Compound": "Cc1ccc(COc2ccc3ccc(C(=O)N[C@@H](CCCNC(=N)CCl)C(=O)NCc4ccccc4)cc3c2)cc1", "tested on": "PADI1", "assay": "enzyme activity, inhibitor", "setting": "pre-incubation 15 min at 37 °C, together with: Z-Arg-AMC", "measurement": "IC50", "result": "3.14 ± 0.083 µM"}
{"Compound": "COc1ccc2c(=O)oc3c(OC)cc(CC(O)CNC4CCCCC4)c4c(=O)oc1c2c34 (stereo not shown)", "tested on": "TLR2", "assay": "reporter gene, inhibitor, SEAP reporter", "system": "HEK-Blue hTLR2", "setting": "24 h, together with: Pam3CSK4 100 ng/mL", "measurement": "IC50", "result": "5.92 ± 0.69 µM"}
{"Compound": "Cc1cc(OS(=O)(=O)Oc2ccc(C(F)(F)F)cc2)cc(C(=O)NO)c1", "tested on": "HDAC11", "measurement": "IC50", "result": "0.91 µM"}
{"Compound": "NCCC(O)c1cccc(O)c1 (stereo not shown)", "tested on": "RPE65 (Bos taurus, UniProt Q28175)", "assay": "inhibitor", "measurement": "IC50", "result": "> 10 µM"}
{"Compound": "O=C(Nc1ccc(-c2nc(-c3ccc(Cl)cc3)no2)cc1)C1CC(=O)N(Cc2cccnc2)C1 (stereo not shown)", "tested on": "RXFP3 (Homo sapiens, UniProt Q9NSD7)", "assay": "ERK1/2 phosphorylation, antagonist", "system": "CHO-K1", "setting": "together with: 1 nM relaxin-3", "measurement": "IC50", "result": "7.82 µM"}
{"Compound": "CN1CCN(CCNCc2cc3cc(-c4ccccc4)ccc3nc2SCc2ccccc2)CC1", "tested on": "atpE/atpB", "assay": "ATP synthesis, inhibitor", "system": "Acinetobacter baumannii inverted membrane vesicles", "setting": "together with: NADH", "measurement": "IC50", "result": "1.57 µM"}
{"Compound": "C[C@H]1[C@H](C)CC[C@]2(C(=O)O)CC[C@]3(C)C(=CC[C@@H]4[C@@]5(C)C[C@@H](O)[C@H](O)[C@@](C)(CO)[C@@H]5CC[C@]43C)[C@H]12", "tested on": "Fructose-1,6-bisphosphatase 1 (Homo sapiens, UniProt P09467)", "assay": "enzyme activity, inhibitor, coupled colorimetric", "measurement": "IC50", "result": "2.5 µM"}
{"Compound": "c1cc(-c2nc(NCCN3CCNCC3)c3c4c(sc3n2)CCCC4)ccn1", "tested on": "PRKCZ (Homo sapiens, UniProt Q05513)", "measurement": "IC50", "result": "12.1 µM"}
{"Compound": "COc1cc2cc(CNCCN3CCN(C)CC3)c(SCc3ccccc3)nc2c(OC)c1OC", "tested on": "atpE/atpB", "assay": "ATP synthesis, inhibitor", "system": "Acinetobacter baumannii inverted membrane vesicles", "setting": "together with: NADH", "measurement": "IC50", "result": "1.21 µM"}
{"Compound": "O=C(NC1CCCCC1)NC1CCCCC1", "tested on": "soluble epoxide hydrolase (Canis lupus familiaris, UniProt A0A8I3NJL8)", "measurement": "IC50", "result": "0.74 µM"}
{"Compound": "c1ccc(CSc2nc3ccc(-c4ccccc4)cc3cc2CNCc2ccc(CN3CCCC3)cc2)cc1", "tested on": "atpE/atpB", "assay": "ATP synthesis, inhibitor", "system": "Acinetobacter baumannii inverted membrane vesicles", "setting": "together with: NADH", "measurement": "IC50", "result": "0.566 µM"}
{"Compound": "Oc1cc2c(cc1O)CN(C(=S)NCCc1ccc(Cl)cc1)CCC2", "tested on": "TRPV1", "assay": "K+ efflux, antagonist, BRET", "system": "HEK293T", "setting": "together with: capsaicin 500 nM", "measurement": "IC50", "result": "1.95 µM"}
{"Compound": "Cc1cc(OS(=O)(=O)Oc2ccc(C(C)C)cc2)cc(C(=O)NO)c1", "tested on": "HDAC11", "measurement": "IC50", "result": "6.94 µM"}
{"note": "A few entries again:"}
{"Compound": "O=C(O)C1=CC(=C(c2ccc(O)c(C(=O)O)c2)c2ccc(O)c(C(=O)O)c2)C=CC1=O", "tested on": "TREX1 (Homo sapiens, UniProt Q9NSU2)", "assay": "exonuclease activity, inhibitor", "setting": "together with: 30-mer ssDNA substrate", "measurement": "IC50", "result": "1.81 µM"}
{"Compound": "Cc1ccc(C(=O)Nc2ccc(S(=O)(=O)O)c3cc(S(=O)(=O)O)cc(S(=O)(=O)O)c23)cc1NC(=O)c1cccc(NC(=O)Nc2cccc(C(=O)Nc3cc(C(=O)Nc4ccc(S(=O)(=O)O)c5cc(S(=O)(=O)O)cc(S(=O)(=O)O)c45)ccc3C)c2)c1", "tested on": "P2RX2 D148K/E146K/L150K", "assay": "ion current, antagonist, two-electrode voltage clamp", "setting": "together with: ATP at EC90", "measurement": "IC50", "result": "5.9 µM"}
{"Compound": "Cc1c(OS(=O)(=O)Oc2ccc(C(C)(C)C)cc2)cccc1C(=O)NO", "tested on": "HDAC11", "measurement": "IC50", "result": "1.05 µM"}
{"Compound": "O=c1cc(-c2ccc(O)cc2)oc2c([C@@H]3OC[C@H](O)[C@H](O)[C@H]3O)c(O)c([C@@H]3O[C@H](CO)[C@@H](O)[C@H](O)[C@H]3O)c(O)c12", "tested on": "CaMKII (four isoforms)", "assay": "initial kinase activity, inhibitor", "measurement": "IC50", "result": "> 100 µM"}
